Results collected from several papers.
A part holds a random share of what one study measured. Positions count from the first letter of the parent shown.

Series 1
Target: RNA binding protein fox-1 homolog 2, RRM domain, GST-SBP tag (RBFOX2, Homo sapiens, UniProt O43251-10, residues 100-194)
Technique: RNA Bind-n-Seq
Form: RNA
Medium: in vitro
Tested at: 365 nM
Setting: natural RNA segment, single round, ends assumed
Baseline: no-protein control
Direction: higher = stronger binding
All sequences stand within: GGGAGUUCUACAGUCCGACGAUC … UGGAAUUCUCGGGUGCCAA
Target sequence (chain): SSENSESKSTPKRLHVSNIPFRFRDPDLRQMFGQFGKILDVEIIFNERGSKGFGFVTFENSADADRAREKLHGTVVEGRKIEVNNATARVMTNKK
| Strand | RBNS enrichment (R) |
| --- | --- |
| CAUGUCCAGCUUCAAAGAGUUGUGCAUGAACUCGGUAAUACACAUCACACGGCUGAGAGUCCCCUUUCCAGGCAGGGCCAGCAUGUGUAGAAUAUCUUUCAGAAUAUGGU | 0.818 |
| GUAUUACAACCCAACGGCGGCCCAUCUUCAACGGAAAGCGAGAACCAUUUUGGAAACUGUCAUGUAACUUAUUUUCUCCUUUAACCUCGUCAUCGUUUUCUGUAGGGGAA | 0.723 |
| AGGACUCCUGCCAGACCACACAGCCCACACCUGGCCCUGUUCACGGCUGUUCCACCCACCCCUCUUUAUUCUGGAGCAUAUCAGGGAAAGAAAAGUUGAUGAUAGAUUGC | 0.515 |
| CACAUUUUCUCAGUGUGCCCUUCUCUUAUCUGCCAUGUCCAUAGCCAUAAUUCCACCAUCAUACAGAUCAGGCAGUGUUUAAAAUGAUGGUAGGUAGCACAGUGGACAGU | 0.494 |
| UGCCCGCCGGCUCACCCUUCAGCUGCUGUCGGCCUCUGCUGCCCCUCCCCCAGCCCUUAGCACAGAGAGGGAGAUGCCCCUCCCCAAGCUGCGUUUUUUUAUAGUAGAUU | 0.669 |
| CUUGCAGUAGCAGGCUGACAGGAGCAAUGGCCACCAGCAGGUGAAGGGCAUCGCUGCCCCAGGCCUCAAGCCGGGCACCCAACCCUGGAUGCCACCCCCCAGCGGGUACC | 0.184 |
| UAUUUAGGUUUUAGAUGUUUAAUAGACACAGCACAUUUGCUCUAUUAACUCAGAGGCUCACUACAGAAAUAUGUAAUCAGUGCUGUGCAUCUGUCUGCAGCUAAUGUACC | 0.59 |
| GCUUUACAUCAUUGCUACUUGAUUUUGUUAUGCAACUCAGAUCUCAGAUCUCAGAAUACUUAACCAAGCCAUUACAUCUUAAAACAAAACAAGUAGCAUACAUUUUGUAA | 0.46 |

Series 2
Target: CCNB2, cyclin fold, Cln2 fusion (human)
Technique: yeast growth competition, sequencing
Medium: yeast
Setting: weak parent motif
Baseline: not given
Direction: higher = stronger binding
Starting sequence: PKN2 docking peptide (human); VSAVQKLDFSDTM
| Change | normalised enrichment score |
| --- | --- |
| VSAVQKWDFSDTM [L7W] | 0.0529 |
| VSAVQKLDFSDAM [T12A] | 0.266 |
| VDAVQKLDFSDTM [S2D] | -0.156 |
| VSAVQKLDFSDTQ [M13Q] | -0.045 |
| VHAVQKLDFSDTM [S2H] | -0.352 |
| VSAVQKLDFSRTM [D11R] | -0.0411 |
| VSAVQKLYFSDTM [D8Y] | 0.144 |
| VSWVQKLDFSDTM [A3W] | 0.112 |
| VSAKQKLDFSDTM [V4K] | -0.083 |
| VSAVQKQDFSDTM [L7Q] | -0.282 |
| PSAVQKLDFSDTM [V1P] | 0.0876 |
| VSAVQKLDESDTM [F9E] | -0.447 |
| VSAVQKSDFSDTM [L7S] | -0.379 |
| VSAVQYLDFSDTM [K6Y] | -0.569 |
| VNAVQKLDFSDTM [S2N] | -0.157 |
| VSAPQKLDFSDTM [V4P] | -0.185 |
| VSAVQVLDFSDTM [K6V] | -0.000702 |
| VSHVQKLDFSDTM [A3H] | 0.178 |
| VSAVQKLDFSDTH [M13H] | 0.312 |
| VSAVQKLDFSDTD [M13D] | 0.194 |
| VSALQKLDFSDTM [V4L] | -0.19 |
| VSAVQKLIFSDTM [D8I] | 0.0141 |
| VSANQKLDFSDTM [V4N] | -0.615 |

Series 3
Target: Histone acetyltransferase KAT6A, both winged helices, GST fusion (KAT6A, Homo sapiens, UniProt Q92794, residues 1-181)
Technique: protein binding microarray
Form: double-stranded DNA, one strand shown
Medium: in vitro
Tested at: not given
Setting: 8-mer, flanks averaged, mean of 2 arrays, mostly near background
Baseline: not given
Direction: higher = stronger binding
Residues (chain): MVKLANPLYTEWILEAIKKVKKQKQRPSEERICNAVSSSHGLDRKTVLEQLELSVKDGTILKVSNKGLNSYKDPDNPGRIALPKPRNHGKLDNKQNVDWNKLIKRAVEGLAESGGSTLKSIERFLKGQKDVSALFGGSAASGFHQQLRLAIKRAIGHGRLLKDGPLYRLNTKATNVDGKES
| Strand | E-score |
| --- | --- |
| CTCATGCC | -0.0624 |
| GCTCAATA | -0.0479 |
| GAGGTAGC | -0.0493 |
| GGAGACCC | -0.082 |
| TATCGGAA | 0.0971 |
| ATGGCGAA | 0.0492 |
| ACATGGCG | 0.123 |
| ATTGGTCA | -0.192 |
| CCGTCATC | 0.172 |
| GGCGGCGA | 0.322 |
| GTGTAGTA | -0.125 |
| TAAAGCAA | -0.12 |
| CTCGCTAA | 0.18 |
| TTACGGAA | 0.256 |
| GGCCCAAC | -0.048 |
| GGCAGCGA | 0.103 |
| GGATCCCA | -0.099 |
| ATGACCTA | -0.0475 |
| ACCCGATA | 0.0644 |
| TCGTGAGA | 0.0576 |
| CTATAAAA | -0.0879 |

Series 4
Target: Interferon regulatory factor 5, full length, phosphomimetic (IRF5, Homo sapiens, UniProt Q13568-2, residues 1-514, K96S/S451D/S453D/S456D/S462D)
Technique: protein-binding microarray
Form: double-stranded DNA, one strand shown
Medium: in vitro
Tested at: 250 nM
Setting: 60-bp whole probe
Together with: salmon DNA 0.4 mg/ml
Baseline: random background probes
Direction: higher = stronger binding
All sequences stand within: GCCTAGCAC … GTCTTGATTCGCTTGACGCTGCTG
| Strand | log fluorescence [z-score] |
| --- | --- |
| GACGATCTCAGTATTGAGACGTGCTAG | -0.0365 |
| TTAGGTTTCGCGTATCGGTTAGTGCTA | 5.29 |
| GGAGTTTCCACCCTTCTCTCGTGCTAG | 0.515 |
| GACGGAATCGACACTGGGGACGTGCTA | -0.159 |
| TTAGGACTGAACACTGGGTTAGTGCTA | -0.184 |
| TCAACTCTAATATTGAGACTGTGCTAG | 0.296 |
| GACGTTCTCGGTTTCGGGACGTGCTAG | 3.7 |
| TTATGTCTCCTTATCCTTTAGTGCTAG | 0.664 |
| TCAAGTTTCTCCTTTCGACTGTGCTAG | 4.99 |
| GACGATATCGGGCCTGGAGACGTGCTA | 0.538 |
| TTAGGTTTCCTTTTCCTGTAGTGCTAG | 1.54 |
| TCAGCCATCAATATCTGACTGTGCTAG | 0.169 |
| GATGGACTGCTACTGCTGACGTGCTAG | -0.485 |
| TTAGGTATCGGGACTGTGTTAGTGCTA | 1.86 |
| GACGGCCTGCTTTTCCTGACGTGCTAG | -0.352 |
| TCATGTGTGCATCTATCACTGTGCTAG | 0.0841 |
| TCATTTATATACCTGAAACTGTGCTAG | 1.02 |

Excerpt of the above (series 4):
| Strand | log fluorescence [z-score] |
| --- | --- |
| GGAGTTTCCACCCTTCTCTCGTGCTAG | 0.515 |
| TTAGGTTTCGCGTATCGGTTAGTGCTA | 5.29 |
| GACGTTCTCGGTTTCGGGACGTGCTAG | 3.7 |
| TCAGCCATCAATATCTGACTGTGCTAG | 0.169 |
| GACGATATCGGGCCTGGAGACGTGCTA | 0.538 |
| TCAACTCTAATATTGAGACTGTGCTAG | 0.296 |
| TCATGTGTGCATCTATCACTGTGCTAG | 0.0841 |
